Results from different studies.
Numbered parts are unrelated; each lists some results of a single study.

Set 1
Target: RNA binding protein fox-1 homolog 2, RRM domain, GST-SBP tag (RBFOX2, Homo sapiens, UniProt O43251-10, residues 100-194)
Method: RNA Bind-n-Seq
Molecule type: RNA
Sample: in vitro
Concentration: 365 nM
Notes: natural RNA segment, single round, ends assumed
Reference: no-protein control
Reading: higher = stronger binding
Construct (chain): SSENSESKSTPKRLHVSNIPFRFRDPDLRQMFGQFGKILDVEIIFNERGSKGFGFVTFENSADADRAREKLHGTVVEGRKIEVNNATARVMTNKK
For `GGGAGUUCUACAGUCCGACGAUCUUUCCCCCUUACUGUCAUUGGUCAGUGGAGCAGAUUCUCAUGGCUGUAGGUAGUUGCUACACAGGAAGCGAAGGAACUUUGGGGAGUCACAAGGUGAGUGGGUAGGGGGGUGGAAUUCUCGGGUGCCAA`, “RBNS enrichment (R)” read 1.04.
For `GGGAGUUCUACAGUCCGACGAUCAUGCUUAAAUUCUUUUCAGUUUUCACAGUGGCACAUUUAGGCAUGGGGAUAGUACUAAUUAUGAAAUUUCCUGCAGGAUCUGUUCUAAGGUUGAAAUUUAGCCCAGCUCUUGGAAUUCUCGGGUGCCAA`, “RBNS enrichment (R)” read 0.519.
For `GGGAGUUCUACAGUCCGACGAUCCCCAUACCCUCACCCUUAAAAUUCUCCUGUAACUCAACUAACAAAAUCAAGCCUGAUUCAAAACAUCCUAGGGUGUUUUAAACACACCAUCUGGUGCCAAAUGAAGAUUUUGGAAUUCUCGGGUGCCAA`, “RBNS enrichment (R)” read 1.39.
For `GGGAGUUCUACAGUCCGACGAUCAAAAAUAUGUUCCAGAACCAUGUGCAAGCUCUGUAAGUCACUGCCCGUGUCUGGAUGAAGGGCUUUCGGAAUGUAGAUGGUCAGGAGGUGCAUGCUGCUAUGUGAAUCUUUGGAAUUCUCGGGUGCCAA`, “RBNS enrichment (R)” read 11.6.
Under “RBNS enrichment (R)”, `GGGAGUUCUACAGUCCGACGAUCCACCACACCUGGCUAAUUUUUGUAUUUUAGUAGAGAUGGGGUUUCACCAUGUUGGCCAGGCUCGUCUCGAACUCCUGACUUCAGGUGAUCCACCCAUCUCAGCCUCCCAAUGGAAUUCUCGGGUGCCAA` is recorded as 0.251.
For `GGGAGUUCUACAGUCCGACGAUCCGGACCUAGGAAGUUGGGGUCUGUAGUAUGCCUGGAUUUUCUAUUAUUCAUGAGAUUUGUACAAACCCUAUACCGGAAUGGAUGCUUCCCUUCCACCUCCCUGAAAUGUAUGGAAUUCUCGGGUGCCAA`, “RBNS enrichment (R)” read 0.576.
Under “RBNS enrichment (R)”, `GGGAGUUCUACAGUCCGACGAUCGCCUCAGAGCUCAGUCUUGCCAAGGUGGAGAAAUUCUGGUCGAAGAGGUUGACCGGUAGACUGAAGAGGCCUUGAGAGCCUGGCCAGGUGGCUGUCCACGUGAGGUCAUAUGGAAUUCUCGGGUGCCAA` is recorded as 0.31.
`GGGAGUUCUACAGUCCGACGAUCUUAUUAUUAUGUUAUCAGUAAUCACUGGCAAAAAAAAAAAAAACAAUGGCCAGGUACUACACUGUCGGGGAUUAUAGGUGGACUAACCACGUCUCUGCCUCCUAAAUUCCUGGAAUUCUCGGGUGCCAA`: “RBNS enrichment (R)” 0.541.

Set 2
Target: Histone acetyltransferase KAT6A, winged helix 1, GST fusion (KAT6A, Homo sapiens, UniProt Q92794, residues 1-85)
Method: protein binding microarray
Molecule type: double-stranded DNA, one strand shown
Sample: in vitro
Concentration: not given
Notes: 8-mer, flanks averaged, mean of 2 arrays, mostly near background
Reference: not given
Reading: higher = stronger binding
Residues (chain): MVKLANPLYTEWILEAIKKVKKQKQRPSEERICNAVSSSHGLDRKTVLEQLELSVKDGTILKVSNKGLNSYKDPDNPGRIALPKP
For `ACCTACGT`, the E-score was -0.0597.
With `CAAATAGC` the E-score was -0.0999.
`AGTCCTGC` has an E-score of -0.0747.
`CGAAGCAA` gave an E-score of -0.0811.
For `TCAGGCCA`, the E-score was -0.0703.
`ACGTCACA` gave an E-score of -0.262.
For `CGTCGTGC`, the E-score was 0.171.
For `AATCGTGC`, the E-score was 0.0234.
`AATGTACC` gave an E-score of 0.0579.
`GAAGGTCA` gave an E-score of -0.0439.
`CGTATGAG` has an E-score of 0.0318.
`GGTTCGAC` has an E-score of -0.0383.
`CATCTGAC` gave an E-score of -0.162.
For `GAAAACTA`, the E-score was -0.017.
The E-score of `CTAACATC` is reported as -0.096.
With `CGGCTAAC` the E-score was 0.364.
For `CTACCTGC`, the E-score was 0.118.
With `CGATTTAA` the E-score was -0.157.
`CCGAATCG` gave an E-score of 0.251.

Set 3
Target: Ras GTPase-activating protein-binding protein 1, full length (G3BP1, Homo sapiens, UniProt Q13283)
Chain of UniProt Q13283 (whole entry, looked up): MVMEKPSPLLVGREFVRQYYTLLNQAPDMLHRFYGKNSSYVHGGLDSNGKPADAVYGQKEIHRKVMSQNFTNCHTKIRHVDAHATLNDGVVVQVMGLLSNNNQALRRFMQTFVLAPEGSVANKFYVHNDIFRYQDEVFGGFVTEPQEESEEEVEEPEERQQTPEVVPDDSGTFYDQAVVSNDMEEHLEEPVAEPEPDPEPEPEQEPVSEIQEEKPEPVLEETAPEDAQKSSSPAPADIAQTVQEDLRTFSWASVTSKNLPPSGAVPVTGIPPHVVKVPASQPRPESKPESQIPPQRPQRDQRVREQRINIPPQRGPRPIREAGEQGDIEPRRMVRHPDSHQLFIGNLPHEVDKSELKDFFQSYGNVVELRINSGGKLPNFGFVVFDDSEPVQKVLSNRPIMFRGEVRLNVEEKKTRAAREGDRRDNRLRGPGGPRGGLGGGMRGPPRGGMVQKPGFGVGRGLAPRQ
Method: RNA Bind-n-Seq
Molecule type: RNA
Sample: in vitro
Concentration: 200 nM
Notes: whole 134-nt RNA, ends assumed
With: 150 mM KCl
Reference: input library
Reading: higher = stronger binding
With `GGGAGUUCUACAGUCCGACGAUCGCUCGCCCGAGCUCAGAGGUGAUCAAAGACGCCAACUUGUACAUCAGCGGGCUCCCGCGGACCAUGACCCAGAAGGACGUAGAAGACAUGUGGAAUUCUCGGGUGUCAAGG` the log2 enrichment was -0.422.
The log2 enrichment of `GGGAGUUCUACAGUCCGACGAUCCAAGUCCUGUGCUACACAUCGUAUGUACCGAAUCGGGGUUUGGGGUUUGGUUUGGAAAGUAUUAUGUUACGCCGUUCGGAUCUGCACUUCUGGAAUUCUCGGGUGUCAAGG` is reported as 0.00931.
`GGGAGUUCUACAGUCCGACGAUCUGCAUUUCCUGAGCUGAAGAAGGACCCAGACAUGGUGAAGGACAUCAUUAAUGAAGAAGAGGUGCAGUUUCUCAAGACUCUCAGCAGAGGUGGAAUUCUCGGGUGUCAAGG` gave a log2 enrichment of -0.833.
The log2 enrichment of `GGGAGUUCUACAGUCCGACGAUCUCCUGUGCUACACAUCGUAUGUACCGAAUCGGGGCCCCCCGGCCCCCCGGCCCCCCGGGAAAGUAUUAUGUUACGCCGUUCGGAUCUGCAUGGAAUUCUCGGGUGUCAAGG` is reported as -0.314.
With `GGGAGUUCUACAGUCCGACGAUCGUCCUGUGCUACACAUCGUAUGUACCGAAUCGGUUUUUUUGGAAAAAGGUUUUUUUGGAAAGUAUUAUGUUACGCCGUUCGGAUCUGCACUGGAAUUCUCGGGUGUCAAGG` the log2 enrichment was -1.39.
`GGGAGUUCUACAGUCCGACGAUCUUCCAUUGUGAACGUGCCUGGUGAGUCUACUCUUCGCCGAGAUUUCCUGAGACUGCAGCAGGAGAACAAGGAACGUUCCGAGGCUCUUCGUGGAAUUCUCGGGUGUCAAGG` gave a log2 enrichment of -1.88.
For `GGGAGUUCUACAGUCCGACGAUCUGGGAGGUGGAUUUUGUUUAUUUUUUUAGCUCAUUUCCAGGGGUGGGAAUUUUUUUUUAAUAUGUGUUAUGAAUAAAGUUGUUUUUGAAAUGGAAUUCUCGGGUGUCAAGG`, the log2 enrichment was 0.103.
`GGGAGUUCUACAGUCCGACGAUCUGGGAGGUGGAUUUUGUUUAUUUUUUUAGCUCAUUUCCAGGGGUGGGAAUUUUUUUUUAAUAUGUGUCAUGAAUAAAGUUGUUUUGGAAAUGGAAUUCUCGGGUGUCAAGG` has a log2 enrichment of 0.331.
`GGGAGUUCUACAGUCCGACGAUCGUCCUGUGCUACACAUCGUAUGUACCGAAUCGGGAAAAAGGAAAAAGGGGAAAAAGGGGAAAGUAUUAUGUUACGCCGUUCGGAUCUGCAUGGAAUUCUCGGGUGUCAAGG` gave a log2 enrichment of -0.345.

Set 4
Target: Prothrombin, mature alpha-thrombin (F2, Homo sapiens, UniProt P00734)
Method: aptamer microarray, sandwich
Molecule type: DNA with 2'F-ANA
Sample: in vitro
Concentration: 200 nM
Notes: whole 15-mer aptamer, many near background
With: Cy3 exosite-II aptamer, 400 nM
Reading: higher = stronger binding
Sequence: GGTTGGTGTGGTTGG
`2'F-ANA at 4 5 7 9 10 12 14 15` — result for “mean fluorescence intensity”: 49.1 a.u.
Under “mean fluorescence intensity”, `2'F-ANA at 1 6 9 10 12 14` is recorded as 46.4 a.u.
For `2'F-ANA at 1 2 9 11 12 13 14`, “mean fluorescence intensity” read 59 a.u.
For `2'F-ANA at 6 10 13`, “mean fluorescence intensity” read 137 a.u.
For `2'F-ANA at 4 5 6 11 12 13`, “mean fluorescence intensity” read 73.7 a.u.
`2'F-ANA at 3 6 8 9 10 11 15`: “mean fluorescence intensity” 403 a.u.
Under “mean fluorescence intensity”, `2'F-ANA at 1 5 8 9 11 12 13 14 15` is recorded as 66 a.u.
For `2'F-ANA at 1 2 3 4 7 8 10 12 13 14`, “mean fluorescence intensity” read 49 a.u.
Under “mean fluorescence intensity”, `2'F-ANA at 1 2 3 4 5 6 9 14 15` is recorded as 47.7 a.u.
For `2'F-ANA at 4 6 12 13 14`, “mean fluorescence intensity” read 96.6 a.u.
`2'F-ANA at 2 4 5 7 8 14`: “mean fluorescence intensity” 46.8 a.u.
For `2'F-ANA at 2 3 4 5 8 9 10`, “mean fluorescence intensity” read 54.8 a.u.
Under “mean fluorescence intensity”, `2'F-ANA at 1 5 6 7 8 9 13 14` is recorded as 52.3 a.u.
`2'F-ANA at 4 6 10 11 12 13 14` — result for “mean fluorescence intensity”: 55 a.u.
For `2'F-ANA at 3 4 6 8 9 10 13 14 15`, “mean fluorescence intensity” read 158 a.u.
For `2'F-ANA at 4 8 10 11 13`, “mean fluorescence intensity” read 81.6 a.u.
For `2'F-ANA at 2 6 9 10 11 12 15`, “mean fluorescence intensity” read 127 a.u.
For `2'F-ANA at 3 7 10 13 14`, “mean fluorescence intensity” read 501 a.u.
For `2'F-ANA at 3 5 7 8 9 10 11 12`, “mean fluorescence intensity” read 73.9 a.u.
For `2'F-ANA at 1 2 3 4 6 8 9 11 12 14`, “mean fluorescence intensity” read 69.8 a.u.
`2'F-ANA at 3 4 5 6 7 10 13` — result for “mean fluorescence intensity”: 72.7 a.u.
`2'F-ANA at 1 3 9 10 11 12` — result for “mean fluorescence intensity”: 103 a.u.
For `2'F-ANA at 8 9 10 12 13 15`, “mean fluorescence intensity” read 174 a.u.
For `2'F-ANA at 5 7 8 11 12 13 15`, “mean fluorescence intensity” read 102 a.u.
`2'F-ANA at 1 5 6 10`: “mean fluorescence intensity” 48 a.u.

For quick reference, copied from above (set 2):
`CCGAATCG` gave an E-score of 0.251.
`CGAAGCAA` gave an E-score of -0.0811.
With `CAAATAGC` the E-score was -0.0999.
`CATCTGAC` gave an E-score of -0.162.
The E-score of `CTAACATC` is reported as -0.096.
`AATGTACC` gave an E-score of 0.0579.
For `CTACCTGC`, the E-score was 0.118.
With `CGATTTAA` the E-score was -0.157.
